Measurements pooled from the literature.
Compare with care: the assays were run in different laboratories. Several values in a cell are separate wells, animals, samples, runs or records.
Target: Glycogen synthase kinase-3 beta (GSK3B, Homo sapiens, UniProt P49841)
Sequence of UniProt P49841 (whole entry, unmodified, looked up): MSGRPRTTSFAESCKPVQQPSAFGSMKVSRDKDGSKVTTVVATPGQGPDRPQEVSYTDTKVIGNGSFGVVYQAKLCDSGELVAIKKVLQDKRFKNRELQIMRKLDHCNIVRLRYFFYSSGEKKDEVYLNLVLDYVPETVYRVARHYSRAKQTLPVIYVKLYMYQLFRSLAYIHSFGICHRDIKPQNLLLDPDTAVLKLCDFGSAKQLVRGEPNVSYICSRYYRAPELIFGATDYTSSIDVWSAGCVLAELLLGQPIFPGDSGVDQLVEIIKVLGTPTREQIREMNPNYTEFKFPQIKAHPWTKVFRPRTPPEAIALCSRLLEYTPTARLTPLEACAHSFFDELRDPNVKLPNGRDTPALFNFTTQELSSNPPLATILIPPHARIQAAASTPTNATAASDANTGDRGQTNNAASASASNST

| Structure (SMILES) | assay | test system | setting | how to read | measurement | result |
| --- | --- | --- | --- | --- | --- | --- |
| CN1CCN(Cc2ccc(-c3ccc(CO[C@H]4CCC[C@@H]4NC(=O)c4cc(-c5cnn(C)c5)cnc4N)cc3)cc2)CC1 | enzyme activity, inhibitor |  | 0.1 µM |  | inhibition | 1% |
| CS(=O)(=O)Nc1cccc(-c2csc3cnc(Nc4ccc(N5CCN(CCCCCOc6cccc7c6C(=O)N(C6CCC(=O)NC6=O)C7=O)CC5)cc4)nc23)c1 (stereo not shown) | probe labelling, inhibitor, KiNativ chemoproteomics | MOLT-4 | 1 µM |  | inhibition | -22.8% |
| O=C=[N][Ru-4]123([n]4c5ccc(O)cc5c5c6c(c7cc(F)c[n+]1c7c54)C(=O)NC6=O)[S+]1CC[S+]2CC[S+]3CC1 (stereo not shown) | enzyme activity |  | 100 nM, human enzyme, added: 10 µM ATP | relative to: untreated | remaining activity | 90% |
| CNC(=O)C[C@H](Cc1ccc(C#N)cc1)NC(=O)c1cc(-c2ccc(CN[C@H](C)c3ccc(C)cc3)o2)ccc1Cl | enzyme activity, inhibitor |  | 1 µM |  | activity vs control | 99% |
| COCC12C(=O)NC3C4(C(OC)CC1O)C1CC5(O)C(OC)C(O)C(OC(C)=O)(C1C5OC(=O)c1ccccc1)C3(O)C(OC)C24 (stereo not shown) | kinase activity, inhibitor, ProQinase kinase profiling |  | 25 µM | relative to: control | remaining activity | 93% and 95% |
| COc1ccc(O)cc1-c1c[nH]c2ncc(-c3cncc(C(=O)N(C)C)c3)cc12 | binding, competition with immobilised ligand |  | 0.2 µM |  | inhibition | 8.08% |
| COc1cc(Nc2nc(C)cc(-c3cnn4nc(OC)ccc34)n2)cc(C(F)(F)F)c1 | inhibitor |  | 1 µM | relative to: control | remaining activity | 100% |
| C[C@H]1CN(C(=O)c2cn(-c3ccnc(N)n3)c3cc(C#CC4(O)CCCCC4)ccc23)CCN1 | enzyme activity, inhibitor, FRET |  | 1 µM |  | inhibition | 3% |
| CNC(=O)C1CCN(c2cc(C)c(F)cc2NC(=O)c2ccc(-c3cc(O)ccc3C)c(C)c2)CC1 | binding, competition with immobilised ligand |  | 1 µM |  | remaining binding | 94% |
| NC(=O)[C@@H](O)C[C@H]1CCc2sc3ncnc(O[C@H]4CC[C@H](N5CCOCC5)CC4)c3c21 | enzyme activity, inhibitor |  | 10 µM |  | inhibition | 0% |
| COc1ccc(-n2nc(/C=C/c3ccc(O)c(OC)c3)cc2/C=C/c2ccc(O)c(OC)c2)cc1 |  |  | concentration not given, cell-based |  | activity | inactive |
| Cc1cccc(O[C@H]2CCC[C@@H](C(C)CNCc3ccncc3)C2)c1 (relative stereo) | enzyme activity, inhibitor |  | 1 µM |  | inhibition | -9% |
| Nc1ncc2c(n1)-c1c([nH]c3ccc(C4=CCOCC4)cc13)CCC2 | binding, competition with immobilised ligand |  | 1 µM |  | remaining binding | 100% |
| CCN1CCN(Cc2ccc(C(=O)Nc3ccc(C)c(NCc4cnc5[nH]ccc5c4OC)c3)cc2C(F)(F)F)CC1 | binding, competition with immobilised ligand |  | 1 µM |  | remaining binding | 78% |
| Cc1cccc(-c2ccc3nc(NC(=O)C4CCCCC4)nn3c2)c1 | enzyme activity, Dundee kinase panel |  | 10 µM |  | remaining activity | 71% |
| O=C(Cc1ccc(OCc2ccccc2)cc1)NC1(C(=O)O)CCN(C(=O)c2ccc(-c3cccc(Cl)c3)cc2)CC1 | enzyme activity, inhibitor |  | 10 µM |  | activity vs control | 75% |
| CN1CCN(Cc2ccc(NC(=O)c3cccc(C#Cc4cnc(N)c5ncccc45)c3)cc2C(F)(F)F)CC1 | cell-free assay, competition with immobilised ligand |  | 50 nM |  | remaining binding | 69% |
| CNS(=O)(=O)Nc1nccc(Cc2c(C)c3ccc(Oc4ncccc4F)cc3oc2=O)c1F | cell-free assay, competition with immobilised ligand |  | 10 µM |  | remaining binding | 94% |
| COc1ccc(NC(=O)Nc2ccc3c(c2)C(=O)N(C(C)CO)CC(C)C(CN(C)Cc2ccc4c(c2)OCO4)O3)cc1 (stereo not shown) | kinase activity, KinaseProfiler |  | 0.03 µM, species human | relative to: control | remaining activity | 101% |
| C=CC(=O)Nc1cccc(-c2cnc3[nH]cc(C(=O)NC(C)(C)C)c3n2)c1 | enzyme activity, inhibitor |  | 0.1 µM |  | inhibition | 61% |
| Cc1ccc(C)c(-c2ccc3nc(NC(=O)C4CCCCC4)nn3c2)c1 | enzyme activity, Dundee kinase panel |  | 10 µM |  | remaining activity | 78% |
| CC(=O)N1c2ccc(-c3ccc(CNC(=O)c4cn5cc(-c6cnc(N)nc6)nc(N6CCOCC6)c5n4)cc3)cc2CC[C@@H]1C | binding, competition with immobilised ligand |  | 10 µM |  | remaining binding | 88% |
| CC(C)=CC1OC(C)(C)C2C=C3C(=O)C(Cl)=CC(O)C3C3C(O)C4OC4C(=O)C132 (stereo not shown) | cell-free assay, competition with immobilised ligand |  | 10 µM |  | remaining binding | 80% |
| Nc1nc(Nc2ccccc2)sc1C(=O)c1ccccc1 | enzyme activity, inhibitor |  | 10 µM |  | remaining activity | 0% |
| C=CC(=O)Nc1cc(-c2nn(C3CCN(CCNC(=O)[C@H](C)CCC45CC6CC(CC(C6)C4)C5)CC3)c3ncnc(N)c23)ccc1Oc1ccccc1 | inhibitor, KiNativ profiling | biochemical | 2 µM |  | inhibition | 20.5% |

Repeated from above:
| Structure (SMILES) | assay | test system | setting | how to read | measurement | result |
| --- | --- | --- | --- | --- | --- | --- |
| Cc1ccc(C)c(-c2ccc3nc(NC(=O)C4CCCCC4)nn3c2)c1 | enzyme activity, Dundee kinase panel |  | 10 µM |  | remaining activity | 78% |
